Measured values from different studies.
Every numbered part comes from another study and shows a few of its results, in no order. “And” joins repeats or separate records; there may be more than shown.
UniProt P53671, sequence (whole entry, looked up): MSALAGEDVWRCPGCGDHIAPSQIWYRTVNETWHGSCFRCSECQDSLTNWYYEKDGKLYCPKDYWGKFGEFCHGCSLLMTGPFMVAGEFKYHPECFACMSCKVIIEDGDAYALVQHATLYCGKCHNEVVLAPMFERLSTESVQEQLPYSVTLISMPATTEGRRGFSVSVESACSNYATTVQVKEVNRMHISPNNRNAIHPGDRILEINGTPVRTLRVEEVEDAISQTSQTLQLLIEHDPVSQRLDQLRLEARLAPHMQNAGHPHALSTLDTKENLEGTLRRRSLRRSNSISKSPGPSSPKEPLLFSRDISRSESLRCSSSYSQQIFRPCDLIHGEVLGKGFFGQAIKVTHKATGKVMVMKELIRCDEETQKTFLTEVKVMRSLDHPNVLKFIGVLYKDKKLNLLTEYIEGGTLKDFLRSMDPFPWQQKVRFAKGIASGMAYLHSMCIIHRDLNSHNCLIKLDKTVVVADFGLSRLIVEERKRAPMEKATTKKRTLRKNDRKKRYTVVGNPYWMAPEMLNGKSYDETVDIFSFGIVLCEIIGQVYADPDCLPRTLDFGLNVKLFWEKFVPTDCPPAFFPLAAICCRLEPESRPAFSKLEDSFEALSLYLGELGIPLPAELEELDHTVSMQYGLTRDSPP
UniProt Q07002, sequence (whole entry, looked up): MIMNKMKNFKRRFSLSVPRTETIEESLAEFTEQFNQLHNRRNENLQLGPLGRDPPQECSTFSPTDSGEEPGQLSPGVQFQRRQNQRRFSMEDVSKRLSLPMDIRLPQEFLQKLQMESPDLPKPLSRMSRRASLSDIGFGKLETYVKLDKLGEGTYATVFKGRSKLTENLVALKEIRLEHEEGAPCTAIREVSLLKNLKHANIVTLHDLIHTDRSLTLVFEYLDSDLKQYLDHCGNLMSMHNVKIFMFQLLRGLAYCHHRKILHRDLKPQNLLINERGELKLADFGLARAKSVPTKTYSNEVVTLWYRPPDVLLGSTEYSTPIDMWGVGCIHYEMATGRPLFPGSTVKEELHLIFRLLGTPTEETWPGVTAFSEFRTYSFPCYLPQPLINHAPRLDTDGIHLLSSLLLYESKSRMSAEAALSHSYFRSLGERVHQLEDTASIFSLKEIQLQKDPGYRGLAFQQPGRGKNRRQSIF
UniProt P07949, sequence (whole entry, unmodified, looked up): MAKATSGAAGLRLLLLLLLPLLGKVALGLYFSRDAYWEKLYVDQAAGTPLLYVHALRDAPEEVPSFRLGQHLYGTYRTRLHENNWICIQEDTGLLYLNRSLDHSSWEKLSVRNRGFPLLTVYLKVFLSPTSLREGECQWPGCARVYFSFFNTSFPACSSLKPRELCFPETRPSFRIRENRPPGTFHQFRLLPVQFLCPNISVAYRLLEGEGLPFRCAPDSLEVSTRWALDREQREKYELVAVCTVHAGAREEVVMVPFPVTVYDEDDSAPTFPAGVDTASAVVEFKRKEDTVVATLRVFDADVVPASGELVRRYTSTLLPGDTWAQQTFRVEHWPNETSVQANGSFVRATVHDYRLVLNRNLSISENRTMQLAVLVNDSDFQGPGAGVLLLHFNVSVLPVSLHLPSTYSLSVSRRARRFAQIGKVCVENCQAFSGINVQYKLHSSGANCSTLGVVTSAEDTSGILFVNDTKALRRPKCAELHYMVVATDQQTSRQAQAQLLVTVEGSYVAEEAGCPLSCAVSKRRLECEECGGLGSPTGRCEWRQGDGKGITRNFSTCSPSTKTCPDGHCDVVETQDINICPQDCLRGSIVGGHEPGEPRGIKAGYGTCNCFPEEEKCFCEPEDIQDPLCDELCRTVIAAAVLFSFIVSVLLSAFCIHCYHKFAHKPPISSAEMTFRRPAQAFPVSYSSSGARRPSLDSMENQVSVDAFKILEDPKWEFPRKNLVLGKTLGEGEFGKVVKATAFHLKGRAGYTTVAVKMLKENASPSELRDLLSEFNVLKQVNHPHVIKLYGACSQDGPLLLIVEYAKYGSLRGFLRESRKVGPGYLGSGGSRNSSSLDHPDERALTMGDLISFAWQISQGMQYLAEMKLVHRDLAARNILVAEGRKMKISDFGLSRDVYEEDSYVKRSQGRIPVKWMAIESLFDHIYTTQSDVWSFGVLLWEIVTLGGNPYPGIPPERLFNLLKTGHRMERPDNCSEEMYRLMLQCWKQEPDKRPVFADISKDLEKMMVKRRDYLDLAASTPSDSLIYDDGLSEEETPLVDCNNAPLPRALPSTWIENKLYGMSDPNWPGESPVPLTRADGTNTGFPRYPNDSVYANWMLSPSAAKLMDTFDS
UniProt Q96BR1, sequence (whole entry, looked up): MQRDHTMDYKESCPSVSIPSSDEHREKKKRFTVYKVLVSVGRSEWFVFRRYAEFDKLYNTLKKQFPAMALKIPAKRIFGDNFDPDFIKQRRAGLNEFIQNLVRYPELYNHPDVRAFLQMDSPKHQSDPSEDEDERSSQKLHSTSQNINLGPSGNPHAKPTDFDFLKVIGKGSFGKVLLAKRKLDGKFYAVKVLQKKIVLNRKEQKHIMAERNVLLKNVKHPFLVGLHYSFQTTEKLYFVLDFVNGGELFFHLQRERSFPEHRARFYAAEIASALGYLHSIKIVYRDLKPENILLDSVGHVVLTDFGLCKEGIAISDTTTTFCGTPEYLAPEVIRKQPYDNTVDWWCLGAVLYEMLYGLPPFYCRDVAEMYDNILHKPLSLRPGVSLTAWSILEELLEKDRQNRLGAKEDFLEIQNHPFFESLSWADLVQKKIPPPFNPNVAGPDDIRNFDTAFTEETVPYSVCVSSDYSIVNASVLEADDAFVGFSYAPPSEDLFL
UniProt Q13464, sequence (whole entry, looked up): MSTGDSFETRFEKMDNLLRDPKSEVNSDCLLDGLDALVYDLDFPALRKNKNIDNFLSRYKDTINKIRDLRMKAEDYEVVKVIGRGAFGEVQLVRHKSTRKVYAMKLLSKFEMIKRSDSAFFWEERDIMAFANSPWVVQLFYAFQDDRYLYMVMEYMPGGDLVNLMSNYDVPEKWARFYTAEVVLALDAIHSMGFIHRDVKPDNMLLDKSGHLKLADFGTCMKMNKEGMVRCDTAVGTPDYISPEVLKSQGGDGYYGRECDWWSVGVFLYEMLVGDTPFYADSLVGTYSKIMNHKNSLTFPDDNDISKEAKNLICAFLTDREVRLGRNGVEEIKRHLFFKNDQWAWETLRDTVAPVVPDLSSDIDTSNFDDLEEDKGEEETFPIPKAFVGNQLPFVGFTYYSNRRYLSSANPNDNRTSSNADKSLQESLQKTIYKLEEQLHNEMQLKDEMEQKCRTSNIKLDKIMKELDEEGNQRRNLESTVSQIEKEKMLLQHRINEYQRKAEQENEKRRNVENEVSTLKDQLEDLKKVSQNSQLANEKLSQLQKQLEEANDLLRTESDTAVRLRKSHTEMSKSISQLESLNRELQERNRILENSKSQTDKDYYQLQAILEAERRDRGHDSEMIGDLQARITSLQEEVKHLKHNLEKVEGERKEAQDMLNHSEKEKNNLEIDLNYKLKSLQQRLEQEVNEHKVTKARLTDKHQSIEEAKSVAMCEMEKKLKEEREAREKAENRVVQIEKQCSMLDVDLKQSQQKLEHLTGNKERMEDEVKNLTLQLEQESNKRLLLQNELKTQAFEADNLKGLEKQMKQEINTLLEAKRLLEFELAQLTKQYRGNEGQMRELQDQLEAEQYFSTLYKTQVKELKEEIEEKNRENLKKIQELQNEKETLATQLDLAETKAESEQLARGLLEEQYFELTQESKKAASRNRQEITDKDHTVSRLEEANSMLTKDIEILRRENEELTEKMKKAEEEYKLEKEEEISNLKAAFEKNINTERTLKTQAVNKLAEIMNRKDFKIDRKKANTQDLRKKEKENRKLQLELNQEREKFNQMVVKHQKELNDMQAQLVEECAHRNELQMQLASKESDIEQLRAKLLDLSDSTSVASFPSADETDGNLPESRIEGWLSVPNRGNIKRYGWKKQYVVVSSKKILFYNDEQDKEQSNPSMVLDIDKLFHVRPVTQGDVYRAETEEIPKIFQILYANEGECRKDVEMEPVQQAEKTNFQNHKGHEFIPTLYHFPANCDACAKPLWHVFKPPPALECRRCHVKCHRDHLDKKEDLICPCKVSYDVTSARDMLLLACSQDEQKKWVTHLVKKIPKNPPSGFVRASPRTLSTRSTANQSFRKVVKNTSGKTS

Study 1 — observed: enzyme activity; mode: inhibitor; concentration: 0.5 µM; relative to: control; quantity: remaining activity
Target: Dual specificity tyrosine-phosphorylation-regulated kinase 2 (DYRK2, Homo sapiens, UniProt Q92630)
UniProt Q92630, sequence (whole entry, looked up): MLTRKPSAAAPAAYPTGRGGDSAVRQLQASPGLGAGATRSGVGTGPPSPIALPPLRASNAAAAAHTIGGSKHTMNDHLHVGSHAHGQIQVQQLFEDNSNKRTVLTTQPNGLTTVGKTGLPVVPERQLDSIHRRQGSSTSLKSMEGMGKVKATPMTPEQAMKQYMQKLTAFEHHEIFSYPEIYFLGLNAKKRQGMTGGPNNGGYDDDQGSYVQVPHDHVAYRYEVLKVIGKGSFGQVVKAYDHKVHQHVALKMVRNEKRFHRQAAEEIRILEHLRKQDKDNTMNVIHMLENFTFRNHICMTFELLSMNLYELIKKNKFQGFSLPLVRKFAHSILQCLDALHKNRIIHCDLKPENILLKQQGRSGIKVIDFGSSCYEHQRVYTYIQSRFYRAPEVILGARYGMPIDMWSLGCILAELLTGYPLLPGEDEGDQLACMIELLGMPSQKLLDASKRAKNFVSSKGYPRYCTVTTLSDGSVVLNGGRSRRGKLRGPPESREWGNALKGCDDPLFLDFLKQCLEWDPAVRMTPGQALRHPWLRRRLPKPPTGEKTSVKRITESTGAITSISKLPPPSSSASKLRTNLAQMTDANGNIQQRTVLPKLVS
CCOc1cc2ncnc(Nc3cccc(Br)c3)c2cc1OCC: 88.8%
Nc1[nH]nc2nnc(-c3c(-c4ccccc4)nn4ccccc34)cc12: 103%
CC(C)[C@H](CO)Nc1nc(Nc2cccc(Cl)c2)c2ncn(C(C)C)c2n1: 98.4%
Cc1nc(Nc2ncc(C(=O)Nc3c(C)cccc3Cl)s2)cc(N2CCN(CCO)CC2)n1: 113%
CN(C)CCCn1cc(C2=C(c3c[nH]c4ccccc34)C(=O)NC2=O)c2ccccc21: 111%
O=C(Nc1ccc(Cl)cc1)c1ccccc1NCc1ccncc1: 96%
COc1cc2ncnc(N3CCN(C(=O)Nc4ccc(Oc5ccccc5)cc4)CC3)c2cc1OC: 95.4%
Cn1cnc2cc3c(Nc4cccc(Br)c4)ncnc3cc21: 95.5%
CC(C)c1nn(-c2c(Cl)cccc2Cl)c2nc(Cc3ccc(OCCO)cc3)[nH]c(=O)c12: 100%
Cc1ccc(NC(=O)c2ccc(CN3CCN(C)CC3)cc2)cc1Nc1nccc(-c2cccnc2)n1: 99.2%
O=c1cc(N2CCOCC2)oc2c1ccc1ccccc12: 88.9%
COc1cc2ncnc(Nc3ccc(OCc4ccccc4)cc3)c2cc1OC: 111%
COc1cc2ncc(-c3ccccc3)nc2cc1OC: 95.9%
Cn1cc(/C=C2\C(=O)Nc3ccc(S(N)(=O)=O)cc32)c2ccccc21: 85.5%
O=C1NC(=O)/C(=C/c2ccc3nccnc3c2)S1: 39.8%
CCC(=O)Nc1ccc2ncnc(Nc3cccc(Br)c3)c2c1: 90.6%
CCN1/C(=C/C(C)=O)Sc2ccc(OC)cc21: 19.5%

Study 2 — observed: enzyme activity; mode: inhibitor; concentration: 1 µM; quantity: inhibition
Structure (SMILES): CC#CC(=O)N1CCC[C@H]1c1nc(-c2ccc(C(=O)Nc3ccccn3)cc2)c2c(N)nccn12
CDK18 (Homo sapiens, UniProt Q07002): 0%
RET (Homo sapiens, UniProt P07949, V804L): 22%
ROCK1 (Homo sapiens, UniProt Q13464): 40%
CDC42BPG (Homo sapiens, UniProt Q6DT37): 22%
LIM domain kinase 2 (LIMK2, Homo sapiens, UniProt P53671): 0%
SGK3 (Homo sapiens, UniProt Q96BR1): 0%
MKNK2 (Homo sapiens, UniProt Q9HBH9): 10%

Study 3 — cell line: colorectal tumour organoids; concentration: 1 µM; relative to: DMSO; quantity: viability
O=C(O)c1ccc(-c2coc3ncc(-c4ccccc4)cc23)cc1Cl: 109%
Cn1cc(-c2ccc3occ(-c4ccccc4-c4ccccc4)c3n2)cn1: 119%
COc1cc(Nc2ccnc3ccc(Br)cc23)cc(OC)c1OC: 67.9%
CCN(CC)S(=O)(=O)Nc1cccc(-c2ccc3c(NC(=O)C4CC4)n[nH]c3c2)c1: 84.8%
CC(C)C(=O)Nc1n[nH]c2cc(-c3cccc(NS(=O)(=O)C4CC4)c3)ccc12: 107%

Study 4 — quantity: remaining compound
SMILES: CC(=O)N[C@@H](Cc1c[nH]c2ccccc12)C(=O)N[C@@H](CCC(=O)C=[N+]=[N-])C(=O)OC(C)C
mouse, EL4 tumour homogenate; 5 µM, 0.05 h, added: protease inhibitor cocktail: 85.7%
mouse EL4 tumour homogenate; 5 µM, 0 h, no inhibitor: 100%
mouse EL4 tumour homogenate; 5 µM, 1 h, added: bestatin 10 µM: 0.093%
EL4 tumour homogenate, mouse; 5 µM, 1 h, added: leupeptin 100 µM: 0.095%
C57BL/6 CES1-/- mouse GI homogenate; 20 µM, 60 min, pH 7.4: 11%
mouse, EL4 tumour homogenate; 5 µM, 0.05 h, added: pepstatin A 1.0 µM: 0.16%
mouse intestinal homogenate; 5 µM, 0 h, added: leupeptin 100 µM: 100%
mouse EL4 tumour homogenate; 5 µM, 1 h, no inhibitor: 0.18% and 0.183%
mouse EL4 tumour homogenate; 5 µM, 0.05 h, added: E64 10 µM: 0.272%
mouse intestinal homogenate; 5 µM, 0 h, added: aprotinin 0.8 µM: 100%
mouse, EL4 tumour homogenate; 5 µM, 0 h, added: Pefabloc 1 mM: 100%

For quick reference, copied from above (study 4):
mouse, EL4 tumour homogenate; 5 µM, 0.05 h, added: pepstatin A 1.0 µM: 0.16%
mouse EL4 tumour homogenate; 5 µM, 1 h, no inhibitor: 0.18% and 0.183%
mouse EL4 tumour homogenate; 5 µM, 0.05 h, added: E64 10 µM: 0.272%
mouse, EL4 tumour homogenate; 5 µM, 0 h, added: Pefabloc 1 mM: 100%
mouse intestinal homogenate; 5 µM, 0 h, added: leupeptin 100 µM: 100%
